Measured values pooled from the literature.
Each line is one published result; not all experiments were run side by side.
PTH1R: PTH1R (Homo sapiens, UniProt Q03431)
B1: erenumab; V domains shown; sequence looked up; VH QVQLVESGGGVVQPGRSLRLSCAASGFTFSSFGMHWVRQAPGKGLEWVAVISFDGSIKYSVDSVKGRFTISRDNSKNTLFLQMNSLRAEDTAVYYCARDRLNYYDSSGYYHYKYYGMAVWGQGTTVTVSS; VL QSVLTQPPSVSAAPGQKVTISCSGSSSNIGNNYVSWYQQLPGTAPKLLIYDNNKRPSGIPDRFSGSKSGTSTTLGITGLQTGDEADYYCGTWDSRLSAVVFGGGTKLTVL
B2: rsd Y34F (Escherichia coli, UniProt P0AFX4); chain MLNQLDNLTERVRGSNKLVDRWLHVRKHLLVAYFNLVGIKPGKESYMRLNEKALDDFCQSLVDYLSAGHFSIYERILHKLEGNGQLARAAKIWPQLEANTQQIMDYYDSSLETAIDHDNYLEFQQVLSDIGEALEARFVLEDKLILLVLDAARVKHPA
B3: UGT1A9 (Homo sapiens, UniProt O60656); chain GKLLVVPMDGSHWFTMRSVVEKLILRGHEVVVVMPEVSWQLGRSLNCTVKTYSTSYTLEDLDREFKAFAHAQWKAQVRSIYSLLMGSYNDIFDLFFSNCRSLFKDKKLVEYLKESSFDAVFLDPFDNCGLIVAKYFSLPSVVFARGILCHYLEEGAQCPAPLSYVPRILLGFSDAMTFKERVRNHIMHLEEHLLCHRFFKNALEIASEILQTPVTEYDLYSHTSIWLLRTDFVLDYPKPVMPNMIFIGGINCHQGKPLPMEFEAYINASGEHGIVVFSLGSMVSEIPEKKAMAIADALGKIPQTVLWRYTGTRPSNLANNTILVKWLPQNDLLGHPMTRAFITHAGSHGVYESICNGVPMVMMPLFGDQMDNAKRMETKGAGVTLNVLEMTSEDLENALKAVINDKSYKENIMRLSSLHKDRPVEPLDLAVFWVEFVMRHKGAPHLRPAAHDLTWYQYHSLDVIGFLLAVVLTVAFITFKCCAYGYRKCLGKKGRVKKAHKSKTH
B4: TIMP3 24-144 (Homo sapiens, UniProt P35625); sequence looked up; chain CTCSPSHPQDAFCNSDIVIRAKVVGKKLVKEGPFGTLVYTIKQMKMYRGFTKMPHVQYIHTEASESLCGLKLEVNKYQYLLTGRVYDGKMYTGLCNFVERWDQLTLSQRKGLNYRYHLGCN
B5: IL1RL1 19-328 (Homo sapiens, UniProt Q01638); sequence looked up; chain KFSKQSWGLENEALIVRCPRQGKPSYTVDWYYSQTNKSIPTQERNRVFASGQLLKFLPAAVADSGIYTCIVRSPTFNRTGYANVTIYKKQSDCNVPDYLMYSTVSGSEKNSKIYCPTIDLYNWTAPLEWFKNCQALQGSRYRAHKSFLVIDNVMTEDAGDYTCKFIHNENGANYSVTATRSFTVKDEQGFSLFPVIGAPAQNEIKEVEIGKNANLTCSACFGKGTQFLAAVLWQLNGTKITDFGEPRIQQEEGQNQSFSNGLACLDMVLRIADVKEEDLLLQYDCLALNLHGLRRHTVRLSRKNPIDHHS
Chain of UniProt Q05152 (whole entry, looked up): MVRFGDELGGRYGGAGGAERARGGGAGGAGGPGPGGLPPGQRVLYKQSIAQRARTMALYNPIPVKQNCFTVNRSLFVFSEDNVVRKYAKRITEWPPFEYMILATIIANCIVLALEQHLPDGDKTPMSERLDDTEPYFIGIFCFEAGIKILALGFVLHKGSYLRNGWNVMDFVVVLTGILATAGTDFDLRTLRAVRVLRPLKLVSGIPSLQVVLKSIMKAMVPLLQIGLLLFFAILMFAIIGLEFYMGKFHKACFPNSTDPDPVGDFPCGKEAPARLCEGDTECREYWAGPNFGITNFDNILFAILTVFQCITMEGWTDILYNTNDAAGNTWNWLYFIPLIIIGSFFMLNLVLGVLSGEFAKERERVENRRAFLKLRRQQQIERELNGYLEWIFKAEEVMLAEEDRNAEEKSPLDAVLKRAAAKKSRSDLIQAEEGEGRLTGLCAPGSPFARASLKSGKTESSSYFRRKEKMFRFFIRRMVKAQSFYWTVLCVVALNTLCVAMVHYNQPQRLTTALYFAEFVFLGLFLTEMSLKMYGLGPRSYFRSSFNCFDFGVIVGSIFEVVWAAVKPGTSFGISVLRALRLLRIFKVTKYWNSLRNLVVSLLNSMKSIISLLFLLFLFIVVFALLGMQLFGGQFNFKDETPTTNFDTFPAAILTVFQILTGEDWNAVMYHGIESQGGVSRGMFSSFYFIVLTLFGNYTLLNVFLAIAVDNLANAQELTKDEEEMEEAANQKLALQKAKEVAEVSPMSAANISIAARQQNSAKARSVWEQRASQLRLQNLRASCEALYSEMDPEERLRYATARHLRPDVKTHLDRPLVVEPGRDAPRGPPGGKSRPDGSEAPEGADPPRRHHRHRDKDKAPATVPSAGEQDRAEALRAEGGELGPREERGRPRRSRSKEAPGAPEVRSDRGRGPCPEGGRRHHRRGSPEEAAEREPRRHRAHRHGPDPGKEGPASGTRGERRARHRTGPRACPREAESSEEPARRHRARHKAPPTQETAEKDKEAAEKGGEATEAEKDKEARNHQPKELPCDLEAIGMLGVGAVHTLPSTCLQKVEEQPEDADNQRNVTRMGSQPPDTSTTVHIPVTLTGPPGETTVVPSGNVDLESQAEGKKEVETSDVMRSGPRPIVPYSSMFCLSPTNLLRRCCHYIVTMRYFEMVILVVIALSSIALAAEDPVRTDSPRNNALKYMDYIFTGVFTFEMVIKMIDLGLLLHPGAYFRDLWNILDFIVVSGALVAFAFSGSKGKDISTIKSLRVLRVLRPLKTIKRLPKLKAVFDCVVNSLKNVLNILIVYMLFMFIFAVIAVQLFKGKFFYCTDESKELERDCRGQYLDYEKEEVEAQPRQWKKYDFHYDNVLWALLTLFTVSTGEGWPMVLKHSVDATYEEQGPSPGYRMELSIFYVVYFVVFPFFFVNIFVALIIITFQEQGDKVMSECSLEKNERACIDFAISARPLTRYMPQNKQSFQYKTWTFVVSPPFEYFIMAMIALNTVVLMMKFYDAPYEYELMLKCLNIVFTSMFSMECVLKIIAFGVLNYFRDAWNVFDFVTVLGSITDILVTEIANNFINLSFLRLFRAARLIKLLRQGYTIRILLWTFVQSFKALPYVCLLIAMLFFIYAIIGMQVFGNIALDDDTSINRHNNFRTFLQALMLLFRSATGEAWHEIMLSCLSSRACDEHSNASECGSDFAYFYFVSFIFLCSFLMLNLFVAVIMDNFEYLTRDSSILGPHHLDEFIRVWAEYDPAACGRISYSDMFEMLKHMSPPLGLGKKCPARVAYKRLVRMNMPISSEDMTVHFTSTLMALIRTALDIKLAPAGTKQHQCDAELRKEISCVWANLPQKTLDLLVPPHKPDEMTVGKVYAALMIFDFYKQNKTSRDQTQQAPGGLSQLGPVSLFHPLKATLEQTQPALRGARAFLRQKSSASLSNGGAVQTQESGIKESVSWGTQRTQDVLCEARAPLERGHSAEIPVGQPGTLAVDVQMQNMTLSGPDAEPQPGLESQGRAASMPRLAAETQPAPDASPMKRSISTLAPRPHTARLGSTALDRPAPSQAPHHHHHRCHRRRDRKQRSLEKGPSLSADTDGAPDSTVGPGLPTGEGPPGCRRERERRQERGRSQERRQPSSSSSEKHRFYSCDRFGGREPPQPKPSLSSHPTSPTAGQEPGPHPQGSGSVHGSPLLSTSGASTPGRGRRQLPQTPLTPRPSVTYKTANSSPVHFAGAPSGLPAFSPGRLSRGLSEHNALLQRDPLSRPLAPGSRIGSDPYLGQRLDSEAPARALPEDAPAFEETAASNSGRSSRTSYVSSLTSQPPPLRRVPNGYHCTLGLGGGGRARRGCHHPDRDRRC
Chain of UniProt P01031 (whole entry, looked up): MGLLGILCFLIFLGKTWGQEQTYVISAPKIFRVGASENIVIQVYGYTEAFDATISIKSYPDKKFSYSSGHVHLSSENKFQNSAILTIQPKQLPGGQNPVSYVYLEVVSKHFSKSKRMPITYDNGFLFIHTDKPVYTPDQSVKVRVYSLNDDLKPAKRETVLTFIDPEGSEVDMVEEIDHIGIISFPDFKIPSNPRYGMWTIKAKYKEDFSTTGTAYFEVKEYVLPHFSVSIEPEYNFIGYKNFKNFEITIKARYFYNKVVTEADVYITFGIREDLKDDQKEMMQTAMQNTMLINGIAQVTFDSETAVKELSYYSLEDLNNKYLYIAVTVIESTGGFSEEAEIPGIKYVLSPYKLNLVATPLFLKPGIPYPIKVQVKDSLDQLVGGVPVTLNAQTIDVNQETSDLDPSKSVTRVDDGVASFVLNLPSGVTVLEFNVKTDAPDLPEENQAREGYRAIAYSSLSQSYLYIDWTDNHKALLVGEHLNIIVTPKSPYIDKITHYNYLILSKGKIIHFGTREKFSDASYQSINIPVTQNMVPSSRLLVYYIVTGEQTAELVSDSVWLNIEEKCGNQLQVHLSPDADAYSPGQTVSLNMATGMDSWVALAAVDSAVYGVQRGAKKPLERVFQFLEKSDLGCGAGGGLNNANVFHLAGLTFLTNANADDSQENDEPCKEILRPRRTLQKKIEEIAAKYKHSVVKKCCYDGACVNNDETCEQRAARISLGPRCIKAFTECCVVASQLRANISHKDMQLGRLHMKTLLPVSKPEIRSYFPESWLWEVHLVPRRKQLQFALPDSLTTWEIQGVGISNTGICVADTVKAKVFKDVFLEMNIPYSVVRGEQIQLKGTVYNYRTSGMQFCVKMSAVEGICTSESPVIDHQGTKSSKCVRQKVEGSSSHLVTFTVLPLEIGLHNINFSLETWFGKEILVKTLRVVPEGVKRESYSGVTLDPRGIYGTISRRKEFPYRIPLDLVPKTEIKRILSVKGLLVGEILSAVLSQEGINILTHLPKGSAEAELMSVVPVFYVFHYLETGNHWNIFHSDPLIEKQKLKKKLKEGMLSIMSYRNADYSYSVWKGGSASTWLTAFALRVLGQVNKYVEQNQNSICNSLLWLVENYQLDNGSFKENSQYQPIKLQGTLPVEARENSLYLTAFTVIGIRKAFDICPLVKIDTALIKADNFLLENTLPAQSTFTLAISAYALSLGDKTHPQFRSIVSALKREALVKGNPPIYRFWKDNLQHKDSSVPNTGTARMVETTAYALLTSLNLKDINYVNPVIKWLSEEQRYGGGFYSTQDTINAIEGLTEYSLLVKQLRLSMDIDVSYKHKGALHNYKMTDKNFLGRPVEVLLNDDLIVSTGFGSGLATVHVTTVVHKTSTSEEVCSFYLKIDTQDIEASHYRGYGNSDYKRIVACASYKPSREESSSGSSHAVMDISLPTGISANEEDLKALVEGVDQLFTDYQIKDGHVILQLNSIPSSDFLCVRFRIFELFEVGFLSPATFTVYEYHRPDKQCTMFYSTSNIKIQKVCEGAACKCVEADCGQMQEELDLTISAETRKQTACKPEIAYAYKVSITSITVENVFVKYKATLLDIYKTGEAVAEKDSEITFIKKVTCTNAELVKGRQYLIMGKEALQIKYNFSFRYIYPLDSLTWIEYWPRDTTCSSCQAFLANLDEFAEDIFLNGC
Chain of UniProt P01137 (whole entry, looked up): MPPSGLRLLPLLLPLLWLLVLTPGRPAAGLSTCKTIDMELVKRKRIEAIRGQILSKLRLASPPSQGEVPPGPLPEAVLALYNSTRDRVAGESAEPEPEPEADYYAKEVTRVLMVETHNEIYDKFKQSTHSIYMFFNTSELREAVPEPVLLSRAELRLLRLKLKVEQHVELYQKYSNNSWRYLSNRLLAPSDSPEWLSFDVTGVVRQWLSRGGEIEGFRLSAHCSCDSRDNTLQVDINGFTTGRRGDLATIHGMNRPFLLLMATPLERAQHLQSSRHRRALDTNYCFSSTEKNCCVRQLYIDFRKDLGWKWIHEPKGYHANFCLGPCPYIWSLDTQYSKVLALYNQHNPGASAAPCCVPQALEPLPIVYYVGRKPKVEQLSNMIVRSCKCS
Chain of UniProt O95760 (whole entry, looked up): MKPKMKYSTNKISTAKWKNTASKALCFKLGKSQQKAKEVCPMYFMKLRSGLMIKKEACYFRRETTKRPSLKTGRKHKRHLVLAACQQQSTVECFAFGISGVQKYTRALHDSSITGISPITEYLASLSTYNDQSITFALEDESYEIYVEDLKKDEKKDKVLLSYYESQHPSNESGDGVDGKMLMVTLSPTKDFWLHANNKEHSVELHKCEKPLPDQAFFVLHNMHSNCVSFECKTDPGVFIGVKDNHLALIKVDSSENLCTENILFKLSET
Chain of UniProt P06730 (whole entry, looked up): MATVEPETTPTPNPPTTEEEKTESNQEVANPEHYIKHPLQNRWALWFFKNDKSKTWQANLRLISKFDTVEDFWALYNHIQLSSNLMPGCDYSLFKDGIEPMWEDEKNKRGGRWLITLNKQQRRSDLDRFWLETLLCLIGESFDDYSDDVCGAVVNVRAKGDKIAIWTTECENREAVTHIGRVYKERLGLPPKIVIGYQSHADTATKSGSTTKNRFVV
Chain of UniProt P02778 (whole entry, looked up): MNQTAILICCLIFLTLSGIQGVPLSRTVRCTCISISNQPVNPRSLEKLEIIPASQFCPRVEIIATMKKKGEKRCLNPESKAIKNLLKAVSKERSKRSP

| Substance | tested on | test | test system | conditions | scale | endpoint | result |
| --- | --- | --- | --- | --- | --- | --- | --- |
| AR (Homo sapiens, UniProt P10275) | ETV1 (Homo sapiens, UniProt P50549) | E74 luciferase reporter | RK13 | together with: mibolerone 0.5 nmol/L | higher = more activation | reporter activity | 2.1 fold |
| TPDYLMQAMNDKKLMSSLPNFSGIFNHLERLLDEEISRVRKDMYNDTLNGSTEK (Qki 14-67 C35S/L21A (Mus musculus, UniProt Q9QYS9)) | itself | CD thermal melting |  | 50 µM |  | melting temperature | < 15 °C |
| B1 (erenumab) | CALCR/RAMP1 on cells (Homo sapiens) | cAMP production, antagonist, Schild analysis | antibody, Cos7 | together with: amylin |  | pKB | 6.64 |
| ACTA1 filaments (Oryctolagus cuniculus, UniProt P68135) | MYO1A/calmodulin (Gallus gallus) | MgATPase activation, steady-state kinetics |  | together with: EGTA |  | Km of actin | 40 µM |
| PTH fragment, C-terminal amide (Homo sapiens) | PTH1R | cAMP | HEK293 | EC50 |  | cAMP production | 0.58 nM |
| HSP90AB1 (Homo sapiens, UniProt P08238) | LAP of TGFB1 latency associated peptide (UniProt P01137) | CAGA12-luciferase reporter | MG63 | together with: latent TGF-β1 | reference: IgG control, higher = more transcription | increase in TGF-β1 transcription | 1.4 fold |
| IGF1 (Homo sapiens, UniProt P05019) | IGF1R (Gallus gallus) | neurite growth | embryonic spinal motoneurons | 0.1-10 nM | reference: no hormone, higher = longer | neurite length per neuron | 159 um |
| CACNA1B fragment (Oryctolagus cuniculus) | CACNA1B (Oryctolagus cuniculus, UniProt Q05152) | IBa | Xenopus oocytes | not significant |  | peak current reduction | 8.9 % reduction |
| PTH fragment (Homo sapiens) | PTH1R | arrestin3 BRET, agonist | HEK293 | 2 min |  | EC50 | 30 nM |
| PIN1 (Homo sapiens, UniProt Q13526) | Grm5 C-terminal tail, pT1123/pS1126 | cis/trans isomerisation of pS1126-P, ZZ-exchange NMR |  | 20 µM Pin1, 25 °C |  | kcat | 1140 s⁻¹ |
| B2 (rsd Y34F) | rpoD (Escherichia coli, UniProt P00579) | single-round in vitro transcription, inhibitor |  |  | reference: absence of Rsd, higher = less inhibition | remaining transcription | 20% |
| MT-CO3 (Bos taurus, UniProt P00415) | cytochrome c oxidase eight-subunit core (Bos taurus, UniProt P00396) | anion exchange chromatography, RP-HPLC, SDS-PAGE |  | 120 min, pH 7.2, room temperature, apparent, partly coupled to unfolding |  | urea midpoint for subunit dissociation | 3.9 M |
| IL2 Y45K/E62K/N90R/T131R (Homo sapiens) | IL2RA (Homo sapiens, UniProt P01589) | flow cytometry | human PBMCs |  | reference: wildtype IL2, higher = greater reduction | pSTAT5+ Tregs | 3000 fold |
| RBM38 Pep8 S6K | EIF4E (Homo sapiens, UniProt P06730) | immunoblot | RKO | 2.5 µM, 18 h | reference: untreated, higher = more p53 | p53 protein level | 2.3 fold |
| B3 (UGT1A9) | CCCOC(=O)c1ccc(O)cc1 | steady-state kinetics |  | pH 7.4, 37 °C |  | Vmax | 0.00456 µmol/min/mg |
| B4 (TIMP3 24-144) | ADAMTS5 262-874 (Homo sapiens, UniProt Q9UNA0) | inhibitor, steady-state kinetics |  | 1 h, pH 7.5, 37 °C |  | Ki | 0.35 nM |
| B5 (IL1RL1 19-328) | IL33 95-270 (Homo sapiens, UniProt O95760) | NFκB luciferase reporter, inhibitor | GEC-NFκB-Luc | together with: IL-33 2.5 ng/mL |  | IC50 | 0.426 nM |
| CXCL10 (UniProt P02778) | CXCR3 (Homo sapiens, UniProt P49682) | inhibition of forskolin-raised cAMP, agonist | HEK293 |  |  | LogEC50 | -10 |
| GBA1 fragment E326K (Homo sapiens) | SCARB2 lumenal domain 36-430 (Homo sapiens, UniProt Q14108) | SPR |  | pH 7.5, 25 °C, bivalent model, first site | reference: wild-type GCase with LIMP2, higher = weaker binding | Kd1 fold change | 2 fold |
| REC102 (Saccharomyces cerevisiae, UniProt Q02721) | SPO11 (Saccharomyces cerevisiae, UniProt P23179) | SEC-MALS |  |  |  | molecule per partner | 1 |
| GCG GLP-1() | GLP1R (Homo sapiens, UniProt P43220) | cAMP, agonist | CHO-K1 |  |  | cAMP accumulation EC50 | 1120 nM |
| C5a (Homo sapiens, UniProt P01031) | C5AR1 (Homo sapiens, UniProt P21730) | flow cytometry | granulocytes, whole blood | 210 nM, together with: TRAP 10 µM | reference: TRAP alone, higher = more expression | CD11b expression | 1.5 fold |
| ADM2 fragment (Homo sapiens) | CALCRL/RAMP1 whole, on cells (Homo sapiens) | cAMP, antagonist, CAMYEL BRET | COS-7 | 100 nM agonist |  | cAMP decay time constant | 4.44 min |
| SELL (Homo sapiens, UniProt P14151) | SELPLG 42-320 (Homo sapiens, UniProt Q14242) | cell rolling | Jurkat | untreated cells | higher = faster rolling | mean rolling velocity | 226 µm/s |
| Dync1i1 (Mus musculus, UniProt O88485) | Myo6 (Mus musculus, UniProt Q64331) | co-IP | brain lysate, muskelin knockout |  | reference: myosin VI immunoprecipitation, higher = more coprecipitation | relative coprecipitation | 0.87 |
| LWVVPGALPQV (C10orf99 71-81 (Homo sapiens)) | GPR15 (Homo sapiens, UniProt P49685) | inhibition of forskolin-stimulated cAMP, agonist, HTRF | peptide, HEK293A-GPR15 |  |  | pEC50 | 6.39 |

A few entries again:
| Substance | tested on | test | test system | conditions | scale | endpoint | result |
| --- | --- | --- | --- | --- | --- | --- | --- |
| REC102 (Saccharomyces cerevisiae, UniProt Q02721) | SPO11 (Saccharomyces cerevisiae, UniProt P23179) | SEC-MALS |  |  |  | molecule per partner | 1 |
| PTH fragment (Homo sapiens) | PTH1R | arrestin3 BRET, agonist | HEK293 | 2 min |  | EC50 | 30 nM |
| CACNA1B fragment (Oryctolagus cuniculus) | CACNA1B (Oryctolagus cuniculus, UniProt Q05152) | IBa | Xenopus oocytes | not significant |  | peak current reduction | 8.9 % reduction |
| C5a (Homo sapiens, UniProt P01031) | C5AR1 (Homo sapiens, UniProt P21730) | flow cytometry | granulocytes, whole blood | 210 nM, together with: TRAP 10 µM | reference: TRAP alone, higher = more expression | CD11b expression | 1.5 fold |
